Experimental data of several laboratories.
± marks the error that the study gave.
Ryanodine receptor 1: Ryanodine receptor 1 (Oncorhynchus mykiss, UniProt A0A8C7UX14)
gdpP residues 84-659: gdpP, residues 84-659 (Bacillus subtilis, UniProt P37484)
CNR1: Cannabinoid receptor 1 (CNR1, Homo sapiens, UniProt P21554)
KCNMA1 with beta-3 subunit: Calcium-activated potassium channel subunit alpha-1, with beta-3 subunit (KCNMA1, Homo sapiens, UniProt Q12791)

N[C@H]1C=C(C(=O)O)CCC1=C(F)F  KI (inactivation) (Ornithine aminotransferase, mitochondrial (OAT, Homo sapiens, UniProt P04181); enzyme activity, inhibitor): 10 µM
COc1ccccc1Oc1ccc(C(=O)N[C@H](CN2CCN(c3cccc(O)c3)[C@@H](C)C2)C(C)C)cc1  Ke (Delta-type opioid receptor (OPRD1, Homo sapiens, UniProt P41143); antagonist; CHO; together with: DPDPE): 869 ± 200 nM
C[C@H]1CCCC(=O)CCC/C=C/c2cc(O)cc(O)c2C(=O)O1  Km (zhd101 (Clonostachys rosea, UniProt Q8NKB0, V153H); substrate, HPLC; 10 min, pH 5.5, 37 °C, 1% acetonitrile): 58.6 ± 2.05 mM
O=S(=O)(O)c1nc2ccccc2[nH]1  binding free energy (racE (Bacillus subtilis, UniProt P94556, N75L); enzyme activity, inhibitor): -5.71 kcal/mol
acetyl pepstatin  melting temperature (Gag-Pol polyprotein, protease (Human immunodeficiency virus type 1 group M subtype B, UniProt P03367); DSC; 28 µM, pH 4.8): 72.2 °C
Clc1ccc(-c2ccc(Cl)c(Cl)c2)c(Cl)c1  EC20 (Ryanodine receptor 1; [3H]ryanodine binding; rainbow trout, skeletal muscle microsomes): 10.7 µM
COc1cc2c3c(c1OC)Oc1ccc(cc1)C[C@@H]1c4c(cc(OC)c(OC)c4Oc4ccc(cc4)C[C@H]3N(C)CC2)CCN1C  retention time (Heat shock protein HSP 90-alpha, C-terminal domain (HSP90AA1, Homo sapiens, UniProt P07900); binding, zonal affinity chromatography; pH 7.4, 25 °C): 17.3 min
Nc1ncnc2c1ncn2[C@@H]1O[C@@H]2COP(=O)(O)O[C@H]3[C@@H](O)[C@H](n4cnc5c(=O)[nH]cnc54)O[C@@H]3COP(=O)(O)O[C@H]2[C@H]1O  degradation rate (gdpP residues 84-659; substrate, HPLC; 100 µM, 37 °C, upper limit if undegraded 24 h, together with: enzyme 1 µM): 1.3 ± 0.2 mol/min/mol enzyme
C[C@@H]1CN(c2ccc(F)cc2)C(=O)c2cc(COc3ccccn3)nn21  remaining activity (Metabotropic glutamate receptor 5 (Grm5, Rattus norvegicus, UniProt P31424); calcium signal, antagonist; 30 µM): 26.5%
CC(C)(NC(=O)c1nn(CCCCC(F)(F)F)c2ccccc12)c1cccc(C(N)=O)c1  Emax (CNR1; calcium mobilization, agonist; CHO-K1 expressing Gαq16; reference: CP55,940 maximum): 73 ± 4%
anthraquinone-neomycin  binding site size (poly(dA)•2poly(dT) DNA triplex; DNA binding, CD titration; concentration not given, pH 6.8, KCl 150 mM): 7.5 base triplets
CCOc1ccccc1S(=O)(=O)N1CCC(c2nc(-c3ccc(F)cc3)no2)CC1  activity (KCNMA1 with beta-3 subunit; HEK293; 30 µM): inactive
CC(=O)[C@H]1CCC2C3CC[C@H]4C[C@H](O)CC[C@]4(C)C3CC[C@@]21C (stereo partly shown)  maximal response (Nuclear receptor ROR-alpha (RORA, Homo sapiens, UniProt P35398); AlphaScreen; reference: 25 µM 7α-hydroxycholesterol): 149%
NC(=O)CN1CCC[C@@H](NC(=O)c2nn(Cc3ccc(F)cc3)c3ccccc23)C1  Emax (CNR1; calcium mobilization, agonist; CHO-K1 expressing Gαq16; reference: CP55,940 maximum): 117 ± 3%
O=S(=O)(c1cccc2cccnc12)N1CC(c2nc(-c3ccc(F)cc3)no2)C1  activity (KCNMA1 with beta-3 subunit; HEK293; 30 µM): inactive
Clc1ccc(Cl)c(-c2c(Cl)ccc(Cl)c2Cl)c1Cl  Emax (Ryanodine receptor 1; [3H]ryanodine binding; rainbow trout, skeletal muscle microsomes; up to 20 µM; reference: DMSO): 269 ± 7.03%
CALL  relative fluorescence increase (Protein farnesyltransferase (Homo sapiens, UniProt P49354+P49356); enzyme activity, substrate, fluorimetric; peptide; 3 µM, 30 min, together with: 9 µM farnesyl diphosphate; reference: dansyl-GCVLS (set to 1.0)): < 0.05
CCCCSS(C)(=O)=O  GABA current change (Gabrg2/GABRB2/Gabra1 (Rattus norvegicus, UniProt P18508+P47870+P62813, C260A/C282A/C312A/C319A/C341A); two-electrode voltage clamp; Xenopus oocytes; 0.5 mM, applied without GABA, together with: GABA EC10; reference: before labelling): no effect
ganglioside GT1b  NMR signal reduction (Major capsid protein VP1 (BK polyomavirus, UniProt P03088); binding, 1H-NMR line broadening, refers to: NH-acetyl protons; 80 µM, pH 7.9-8.0, 298 K, together with: protein 8 µM): 65.5%
COC1C2OP(=O)(O)OCC3OC(n4cnc5c(N)ncnc54)C(O)C3OP(=O)(O)OCC2OC1n1cnc2c(N)ncnc21 (stereo not shown)  degradation rate (gdpP residues 84-659; substrate, HPLC; 100 µM, 37 °C, upper limit if undegraded 24 h, together with: enzyme 1 µM): 0.14 ± 0.01 mol/min/mol enzyme
O=S1(=O)c2cc(N3CCN4CCC3CC4)ccc2-c2cccc([18F])c21  distribution volume (Neuronal acetylcholine receptor subunit alpha-7 (CHRNA7, Homo sapiens, UniProt P36544); PET imaging radioligand; human, high-binding brain regions; dose not given): > 20 mL/mL
O=S(=O)(O)Oc1ccc(-c2ccc(Cl)cc2)c(Cl)c1  Vmax (sulfatase, human liver microsomes; substrate; pH 7.4, 37 °C): 10.7 ± 0.9 nmol/min/mg
COc1ccc(CC2=[N+](C)CCc3cc(OC)c(O)cc32)cc1O  substrate inhibition constant (DRS-DRR fusion enzyme REPI (Papaver somniferum, UniProt A0A0H4IM19); enzyme activity, substrate, LC-MS product formation; together with: NADPH 500 µM): 43.9 ± 15.4 µM
COc1cc2c(cc1OC)-c1c3c(cc4ccnc(c14)C2=O)OCO3  IC50 (Cholinesterase (BCHE, Equus caballus, UniProt P81908); enzyme activity, inhibitor, Ellman; up to 0.1 µg/mL): inactive
CN1c2ccc(OC(=O)NCCCCCCN3CCOC(CF)C3)cc2CN2CCc3ccccc3C21 (racemic)  KI (inactivation) (Cholinesterase (BCHE, Homo sapiens, UniProt P06276); enzyme activity, inhibitor, Ellman): 0.2 µM
copper-phenanthroline  GABA current change (Gabrg2/GABRB2/Gabra1 (Rattus norvegicus, UniProt P18508+P47870+P62813, C260A/C282A/C312A/C319A/C341A/F313C/L258C); two-electrode voltage clamp; Xenopus oocytes; 100 µM with phenanthroline 200 µM, 2 min, after DTT, together with: GABA 100 µM; reference: initial response, vs Cys-less receptor): decreased
Clc1cc(Cl)c(-c2c(Cl)c(Cl)cc(Cl)c2Cl)cc1Cl  EC20 (Ryanodine receptor 1; [3H]ryanodine binding; rainbow trout, skeletal muscle microsomes): 7.11 µM
TVNKTESAY  translocated peptide (Antigen peptide transporter 1/Antigen peptide transporter 2 (Homo sapiens, UniProt Q03518+Q03519); substrate, radiolabelled peptide transport; peptide, LCL721, streptolysin O-permeabilised; concentration not given; reference: input): 4 to 5%
Clc1ccc(Cl)c(-c2cccc(Cl)c2Cl)c1  Emax (Ryanodine receptor 1; [3H]ryanodine binding; rainbow trout, skeletal muscle microsomes; up to 20 µM; reference: DMSO): 170 ± 3.5%
C=CCCC[C@H](NC(=O)[C@H](CC(C)C)NC(=O)[C@@H](NC(=O)[C@H](CCCNC(=N)N)NC(=O)[C@H](CCCC=C)NC(=O)[C@@H](NC(=O)[C@H](C)NC(=O)[C@H](CCC(=O)O)NC(C)=O)[C@@H](C)CC)[C@@H](C)CC)C(=O)N[C@@H](CCC(N)=O)C(=O)N[C@@H](CC(C)C)C(=O)N[C@@H](CC(C)C)C(=O)N[C@@H](Cc1ccccc1)C(=O)N[C@H](C(=O)N[C@@H](Cc1c[nH]cn1)C(=O)N[C@@H](Cc1ccccc1)C(=O)N[C@@H](CCCNC(=N)N)C(=O)N[C@H](C(=O)NCC(=O)N[C@@H](CCCNC(=N)N)C(=O)N[C@@H](CCC(=O)O)C(=O)N[C@@H](CCCNC(=N)N)C(=O)N[C@@H](CCC(=O)O)C(=O)N[C@@H](CCCNC(=N)N)C(=O)N[C@@H](CCC(=O)O)C(=O)N[C@@H](CCCNC(=N)N)C(=O)N[C@@H](CCC(=O)O)C(N)=O)[C@@H](C)CC)[C@@H](C)CC  minimum DNA retardation concentration (HIV-1 integrase and DNA substrate; DNA binding, gel retardation; 2 h, 37 °C, together with: radiolabelled oligonucleotide DNA): 37 µM
KQTARKSTGGWW (butyryl-Lys9)  kcat/Km (Histone deacetylase 8 (HDAC8, Homo sapiens, UniProt Q9BY41); substrate, HPLC; peptide; 1 µM, 1 h, pH 8, 37 °C): 12.6 ± 0.3 M⁻¹ s⁻¹
CN(C(=O)n1cnc(-c2ccc[n+]([O-])c2)c1)C1CCCCC1  remaining activity (Fatty-acid amide hydrolase 1 (Faah, Mus musculus, UniProt O08914); enzyme activity, ex vivo; mouse, liver; oral, 0.1 mg/kg, 48 h; reference: vehicle): 72.5%
O=[N+]([O-])c1ccc(OP(=O)(O)Oc2ccc([N+](=O)[O-])cc2)cc1  remaining activity (Cocaine esterase (CES2, Homo sapiens, UniProt O00748); irreversible inhibitor; 5× IC50 or 200 µM, 1 h, preincubation then inhibitor removal, together with: o-nitrophenyl acetate substrate): 99.2%
O=[N+]([O-])c1ccc(O[C@H]2O[C@H](CO)[C@H](O)[C@H](O)[C@H]2O)cc1  reverse rate constant (lacY (Escherichia coli, UniProt P02920, I32C/N245C); cytoplasmic cavity closing; DDM; Cu2+ cross-linked): 242 ± 54 s⁻¹
CC(C)C[C@H](NC(=O)[C@H](Cc1ccccc1)NC(=O)c1cnccn1)B(O)O  fold resistance (Proteasome subunits (Trypanosoma cruzi, UniProt Q4CU77+Q4D8U7, I29M); chymotrypsin-like activity; reference: wild type): ~3 fold
N.N.O=C([O-])C1(C(=O)[O-])CCC1.[Pt+2]  reduction in bound oligomers (Alpha-synuclein, oligomers (SNCA, Homo sapiens, UniProt P37840); oligomer-vesicle binding, FIDA; 5 µM, together with: 150 nM oligomers, 50 µM DOPG liposomes; reference: untreated): 15 to 20%
CC1N=C(c2ccccc2F)c2cc(Nc3ccc(Cl)cc3)ccc2NC1=O (stereo not shown)  inhibition (Alpha-2C adrenergic receptor (ADRA2C, Homo sapiens, UniProt P18825); ligand displacement, radioligand; 10 µM): 88%
CSc1cccc(CC(=O)N[C@H]2CCOC2=O)c1  activation (HTH-type quorum-sensing regulator RhlR (rhlR, Pseudomonas aeruginosa, UniProt P54292); reporter gene, agonist; Escherichia coli reporter strain; 100 µM; reference: BHL 900 µM): 70%
O=C(OCC1CCCN(CCCc2ccccc2)C1)c1ccccc1C(F)(F)F (stereo not shown)  potency fold change (Neuronal acetylcholine receptor; alpha4/beta2 (Homo sapiens, UniProt P17787+P43681); concentration not given; reference: amide analogue over parent scaffold): 2.1
CC[C@H](C)[C@H](NC(=O)[C@H](CCCNC(=N)N)NC(=O)[C@H](CCCNC(=N)N)NC(=O)[C@H](CC(C)C)NC(=O)[C@H](CCC(N)=O)NC(=O)[C@H](CCC(=O)O)NC(=O)[C@H](C)NC(=O)[C@@H](NC(=O)[C@H](CNC(=O)c1cc(S(=O)(=O)F)ccc1C)NC(C)=O)[C@@H](C)CC)C(=O)NCC(=O)N[C@@H](CC(=O)O)C(=O)N[C@@H](CCCNC(=N)N)C(=O)N[C@@H](Cc1ccccc1)C(N)=O  kinact (Induced myeloid leukemia cell differentiation protein Mcl-1 (MCL1, Homo sapiens, UniProt Q07820); cell-free assay, inhibitor): 0.0193 s⁻¹
CC(C)(NC(=O)c1nn(CCCCC#N)c2ccccc12)c1cccc(C(N)=O)c1  Emax (CNR1; calcium mobilization, agonist; CHO-K1 expressing Gαq16; reference: CP55,940 maximum): 24 ± 9%
C[C@@H]1C[C@@H]([C@H](O)CC2CC(=O)NC(=O)C2)C(=O)[C@@H](C)C1  half-life (Bifunctional epoxide hydrolase 2 (EPHX2, Homo sapiens, UniProt P34913); immunoblot; HepG2; together with: protein synthesis inhibitor): 48 h
O=P1(S)OCC2OC(n3cnc4cc(Cl)c(Cl)cc43)C(O)C2O1 (stereo not shown)  selectivity ratio (cAMP-dependent protein kinase type II-beta regulatory subunit, holoenzyme with catalytic subunit (Prkar2b, Rattus norvegicus, UniProt P12369, S112A); PKA holoenzyme activation, activator, fluorescence anisotropy; reference: RIIβ over RIα, higher = RIIβ-selective): 4.1

Some of these lines once more:
C[C@@H]1C[C@@H]([C@H](O)CC2CC(=O)NC(=O)C2)C(=O)[C@@H](C)C1  half-life (Bifunctional epoxide hydrolase 2 (EPHX2, Homo sapiens, UniProt P34913); immunoblot; HepG2; together with: protein synthesis inhibitor): 48 h
O=S1(=O)c2cc(N3CCN4CCC3CC4)ccc2-c2cccc([18F])c21  distribution volume (Neuronal acetylcholine receptor subunit alpha-7 (CHRNA7, Homo sapiens, UniProt P36544); PET imaging radioligand; human, high-binding brain regions; dose not given): > 20 mL/mL
CC[C@H](C)[C@H](NC(=O)[C@H](CCCNC(=N)N)NC(=O)[C@H](CCCNC(=N)N)NC(=O)[C@H](CC(C)C)NC(=O)[C@H](CCC(N)=O)NC(=O)[C@H](CCC(=O)O)NC(=O)[C@H](C)NC(=O)[C@@H](NC(=O)[C@H](CNC(=O)c1cc(S(=O)(=O)F)ccc1C)NC(C)=O)[C@@H](C)CC)C(=O)NCC(=O)N[C@@H](CC(=O)O)C(=O)N[C@@H](CCCNC(=N)N)C(=O)N[C@@H](Cc1ccccc1)C(N)=O  kinact (Induced myeloid leukemia cell differentiation protein Mcl-1 (MCL1, Homo sapiens, UniProt Q07820); cell-free assay, inhibitor): 0.0193 s⁻¹
